Assay results pooled from the literature.
Parts stem from different laboratories: compare values within a part only. Positions count from the first letter of the parent shown.

Study 1 — technique: protein-binding microarray; molecule type: double-stranded DNA, one strand shown; sample: in vitro; concentration: 250 nM; notes: 60-bp whole probe; added: salmon DNA 0.4 mg/ml; reference: random background probes; reading: higher = stronger binding; endpoint: log fluorescence; constant ends, left off below: GCCTAGCAC … GTCTTGATTCGCTTGACGCTGCTG
Target: Interferon regulatory factor 7, full length, phosphomimetic (IRF7, Homo sapiens, UniProt Q92985, residues 1-503, S101K/S471D/S472D/S475D/S476D/S477D/S483D/S484D/S487D)
Chain of UniProt Q92985 (whole entry, unmodified, looked up): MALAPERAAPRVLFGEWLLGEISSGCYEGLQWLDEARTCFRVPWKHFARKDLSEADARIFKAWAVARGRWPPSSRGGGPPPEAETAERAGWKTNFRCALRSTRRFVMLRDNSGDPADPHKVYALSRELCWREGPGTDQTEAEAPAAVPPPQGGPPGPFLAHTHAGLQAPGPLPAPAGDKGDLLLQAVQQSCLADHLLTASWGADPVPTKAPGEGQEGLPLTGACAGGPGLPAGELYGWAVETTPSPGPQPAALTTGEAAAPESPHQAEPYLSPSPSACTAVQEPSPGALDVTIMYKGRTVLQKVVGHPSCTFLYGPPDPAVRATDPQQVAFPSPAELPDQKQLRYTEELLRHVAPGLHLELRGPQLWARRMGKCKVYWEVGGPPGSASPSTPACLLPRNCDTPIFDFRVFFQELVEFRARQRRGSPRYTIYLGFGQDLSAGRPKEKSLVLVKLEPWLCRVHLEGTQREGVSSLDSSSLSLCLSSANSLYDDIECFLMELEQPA
GACGGTTTCGTGTATCGGGACGTGCTA: 5.5 z-score
GACGATTTCGACTTTCGGGACGTGCTA: 1.52 z-score
GACGGTTTGGACTTTCGGGACGTGCTA: -0.0769 z-score
GACGGTTTCGACCATCGGGACGTGCTA: 2.35 z-score
GACGATCTGAGTCTCGAGACGTGCTAG: -0.124 z-score
TTAGGACTGGGGTTTCGGATAGTGCTA: 2.46 z-score
GACGCACTGGGTCTCGGGACGTGCTAG: -0.0753 z-score
TCATGAATGTGTCTTAAACTGTGCTAG: -0.272 z-score
TTAGGACTGGACTATCCGTTAGTGCTA: -0.252 z-score
GACTATTTCAGTTCCGAGACGTGCTAG: 1.13 z-score
GACGGTATCGGTATCGGAACGTGCTAG: 2 z-score
TGCCATATTTATCTGCAAAGGTGCTAG: 0.512 z-score
GACGGTAGCGACTATCGGGACGTGCTA: -0.936 z-score
GACGGTTGCGGTATCGGGACGTGCTAG: 0.103 z-score
TTCTCTTTCCTTCTTGATGCGTGCTAG: 1.95 z-score
TTTTGCTTTCCTTTATGTACGTGCTAG: 2.35 z-score
GATGGTCTCGGTATCGGGACGTGCTAG: 2.23 z-score
GACGGTCTCGGTCGCGGGACGTGCTAG: 0.0405 z-score
GACGATATCAGACTGGAGGCGTGCTAG: -0.396 z-score
TTAGGAATGGGGTATCGGTTAGTGCTA: 0.27 z-score
ATTTGCTTCAGGTTTACCAGAGTGCTA: 0.715 z-score
TCATAAATCTTTTTCCCACTGTGCTAG: 1.14 z-score
CTCATTCGTCATTTCACAGTGTGCTAG: 1.35 z-score

Study 2 — target: CCNB1, cyclin fold, Cln2 fusion (human); technique: yeast growth competition, sequencing; sample: yeast; notes: weak parent motif; reference: not given; reading: higher = stronger binding; endpoint: normalised enrichment score
Parent: RB1 docking peptide (human); PKPLKKLRFDIEG
PKPLKKLRFDIYG [E12Y]: 0.968
PKPLKKLRFDMEG [I11M]: 0.415
PKPLKKLTFDIEG [R8T]: 0.421
PKPLKKLRFCIEG [D10C]: 0.15
PKPLKKLLFDIEG [R8L]: -0.506
PKPLKKLRFAIEG [D10A]: 0.271
PKPLKKLRFDIEL [G13L]: 0.337
PKPLKKKRFDIEG [L7K]: 0.535
PKPLKKERFDIEG [L7E]: -0.288
PKPLKKLGFDIEG [R8G]: 0.425
PPPLKKLRFDIEG [K2P]: 0.335
PAPLKKLRFDIEG [K2A]: -0.14
PKPLEKLRFDIEG [K5E]: -0.6
PKPWKKLRFDIEG [L4W]: 0.674
PKPLKKYRFDIEG [L7Y]: 0.092
CKPLKKLRFDIEG [P1C]: 1.3

Study 3 — technique: DHFR PCA, deep sequencing; sample: yeast; added: (+)-ABA 0.0091 µM; reference: wild-type fitted maximum; reading: higher = stronger binding; endpoint: relative binding score
Target: ABI1, truncated, D143A, DHFR fusion (Arabidopsis thaliana)
Notes: methotrexate growth selection, single substitutions
Parent: PYL1, truncated, DHFR fusion (Arabidopsis thaliana); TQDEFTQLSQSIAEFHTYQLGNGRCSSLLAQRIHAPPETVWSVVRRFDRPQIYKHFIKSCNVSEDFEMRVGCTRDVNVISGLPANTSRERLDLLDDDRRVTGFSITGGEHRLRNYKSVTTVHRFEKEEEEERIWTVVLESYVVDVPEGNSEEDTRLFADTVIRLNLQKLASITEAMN
E131F: 13%
S104P: -0.807%
V62G: -5.58%
F124Y: 16.9%
I52L: 45.1%
D3T: 17.5%
N85T: 68.5%
L156A: 7.11%
T154I: 36.4%
F103D: 2.79%
S27F: 1.08%
I162T: 8.45%
D48P: -6.8%
E139K: 10.6%
S11W: 14.7%
F157M: 0.383%
Y141T: -3.67%
Q2K: 21.9%
G21D: 24.7%
L156R: 3.95%
S140G: 2.69%

Study 4 — target: CDC34 UBC core domain (UniProt P49427); technique: yeast two-hybrid; sample: yeast; notes: mostly zero background; reference: not given; reading: higher = stronger interaction; endpoint: lacZ reporter activity
B1: RNF31 RING domain (UniProt Q96EP0); chain AFLRRLLAQECAVCGWALPHNRMQALTSCECTICPDCFRQHFTIALKEKHITDMVCPACGRPDLTDDTQLL
B2: RNF166 RING domain (UniProt Q96A37); chain GDSGLEAQYTCPICLEVYHRPVAIGSCGHTFCGECLQPCLQVPSPLCPLCRLPFDPKKVDK
B3: RNF152 RING domain (UniProt Q8N8N0); chain ETLSQDSLLECQICFNYYSPRRRPKLLDCKHTCCSVCLQQMRTSQKDVRCPWCRGVTKLPPGFS
B4: RNF183 RING domain (UniProt Q96D59); chain EQQGRELEAECPVCWNPFNNTFHTPKMLDCCHSFCVECLAHLSLVTPARRRLLCPLCRQPTVLASGQP
B5: RNF122 RING domain (UniProt Q9H9V4); chain AKKLQLYGQTCAVCLEDFKGKDELGVLPCQHAFHRKCLVKWLEVRCVCPMCNKPIASPSEAT
B6: MEX3B RING domain (UniProt Q6ZN04); chain SGLRRKGSRDCSVCFESEVIAALVPCGHNLFCMECANRICEKSEPECPVCHTAVTQAIRIF
B7: TRIM37 RING domain (UniProt O94972); chain SVESIAEVFRCFICMEKLRDARLCPHCSKLCCFSCIRRWLTEQRAQCPHCRAPLQLRELVN
B8: RNF2 RING domain (UniProt Q99496); chain SPRSLHSELMCPICLDMLKNTMTTKECLHRFCADCIITALRSGNKECPTCRKKLVSKRSLR
B9: TRIM31 RING domain (UniProt Q9BZY9); chain FVNKLQEEVICPICLDILQKPVTIDCGHNFCLKCITQIGETSCGFFKCPLCKTSVRKNAIRF
B10: TRIM22 RING domain (UniProt Q8IYM9); chain VKVDIEKEVTCPICLELLTEPLSLDCGHSFCQACITAKIKESVIISRGESSCPVCQTRFQPGNLRP
B11: DEF8 RING domain (UniProt Q6ZN54); chain AGRLGCSLTEIHTLFAKHIKLDCERCQAKGFVCELCREGDVLFPFDSHTSVCADCSAVFHRDCYYDNSTTCPKCARLSLRK
Target sequence (chain): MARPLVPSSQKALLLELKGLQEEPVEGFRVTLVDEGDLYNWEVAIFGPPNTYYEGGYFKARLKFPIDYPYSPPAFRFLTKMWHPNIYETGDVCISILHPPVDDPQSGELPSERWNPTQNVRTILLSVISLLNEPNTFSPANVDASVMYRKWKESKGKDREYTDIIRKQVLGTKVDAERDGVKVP
B1 (RNF31 RING domain): 0
B2 (RNF166 RING domain): 0
AEADPLGRFTCPVCLEVYEKPVQVPCGHVFCSACLQECLKPKKPVCGVCRSALAPGVRAV (RNF114 RING domain (UniProt Q9Y508)): 0
B3 (RNF152 RING domain): 0
B4 (RNF183 RING domain): 0
B5 (RNF122 RING domain): 0
B6 (MEX3B RING domain): 0
B7 (TRIM37 RING domain): 0
LGTKLEAKYLCSACRNVLRRPFQAQCGHRYCSFCLASILSSGPQNCAACVHEGIYEEGIS (TRAF2 RING domain (UniProt Q12933)): 0
B8 (RNF2 RING domain): 0
B9 (TRIM31 RING domain): 0
B10 (TRIM22 RING domain): 0
B11 (DEF8 RING domain): 0
KPDKMEETLTCIICQDLLHDCVSLQPCMHTFCAACYSGWMERSSLCPTCRCPVERICKNH (CHFR RING domain (UniProt Q96EP1)): 0

Excerpt of the above (study 1):
GACGATATCAGACTGGAGGCGTGCTAG: -0.396 z-score
GACGGTTTCGACCATCGGGACGTGCTA: 2.35 z-score
GACGCACTGGGTCTCGGGACGTGCTAG: -0.0753 z-score
CTCATTCGTCATTTCACAGTGTGCTAG: 1.35 z-score
TTAGGACTGGGGTTTCGGATAGTGCTA: 2.46 z-score
TTAGGACTGGACTATCCGTTAGTGCTA: -0.252 z-score
